Results of several laboratories.
Lines come from different studies, so protocols differ. Values joined by “and” are separate records of one study, mostly repeats; a detail may differ. Numbers after ± are the reported error. Converted amounts (≈) assume the structure as drawn.

SMILES | organism | assay | test system | conditions | how to read | quantity | value
O=C(NC(=O)c1ccccc1Cl)Nc1ccc(Cl)cc1 | Ostrinia furnacalis | leaf dipping | – | 200 mg/L, 96 h | – | mortality | 48.4 ± 2.6%
CC[C@]1(O)C[C@H]2CN(CCc3c([nH]c4ccccc34)[C@@](C(=O)OC)(c3cc4c(cc3OC)N(C=O)[C@H]3[C@@](O)(C(=O)OC)[C@H](OC(C)=O)[C@]5(CC)C=CCN6CC[C@]43[C@@H]65)C2)C1 | Plasmodium falciparum | – | 7G8 | – | – | IC50 | 1000 nM
O=C(NCCN1CCCC1)c1cc(-c2ccc(CN3CCOCC3)cc2)nc2ccc(F)cc12 | Plasmodium falciparum | 18S rRNA qPCR | human | 150 mg | – | parasite clearance half-life | 2.2 h and 4 h and 3.9 h and 3.5 h and 4.5 h
O=[N+]([O-])c1ccc(NC2CCNCC2)c(C(F)(F)F)c1 | Salmonella typhimurium | SOS/umu test | TA1535/pSK1002 | 0.125 mg/mL, 4 h, without S9, full range | – | survival | 85.6%
COc1ccnc(C(=O)N[C@H]2COC(=O)[C@H](Cc3ccccc3)[C@@H](OC(=O)C(C)C)[C@H](C)OC2=O)c1OCOC(=O)C(C)C | Lepomis macrochirus | mortality | – | water exposure, flow-through, 96 h | – | LC50 | 0.0138 µg/mL (≈ 0.0225 µM)
CCCCN(CCCC)CC(O)c1cc(Cl)cc2c1-c1ccc(Cl)cc1/C2=C/c1ccc(Cl)cc1 (centres unmarked) | Plasmodium falciparum | – | 3D7 | – | baseline: HepG2 CC50 over IC50 | selectivity index | > 13000
[Cl-].[Cl-].[Pt+2].[Ru+2].c1ccc(-c2nc3cc4ccccc4cc3nc2-c2ccccn2)nc1.c1cnc2c(c1)ccc1cccnc12.c1cnc2c(c1)ccc1cccnc12 | Danio rerio | – | embryos | 15 µM, 48 h | – | survival rate | 96.7 ± 2.9%
Fc1ccc(C2=CCNCC2)cc1 | Salmonella typhimurium | genotoxicity, SOS/umu test | TA1535/pSK1002 | 0.125 mg/mL, 4 h, with S9, full range | – | induction factor | 0.6
Cc1cc(C(=O)NC(C)(C)COc2cccc3c2C(N)=NS(=O)(=O)N3)cc(C)n1 | Escherichia coli | Ames test, initial | WP2 uvrA | 5.00 µg/plate | baseline: solvent control | revertant ratio | 1.1
OC(CCN1CC=C(c2ccc(F)cc2)CC1)c1ccc(F)c2ccccc12 (centres unmarked) | Salmonella typhimurium | SOS/umu test | TA1535/pSK1002 | 0.004 mg/mL, 4 h, with S9, full range | – | survival | 96.2%
CC(C)(C)c1cc(C=C(C#N)C#N)cc(C(C)(C)C)c1O | Plasmodium falciparum | – | Dd2 | – | – | IC50 | 930 nM
COc1cccc(-c2n[nH]c(SCc3ccccn3)n2)c1OC | Escherichia coli | Ames test, preincubation | WP2 uvrA | 0.25 mg/plate, without S9 | – | revertant colonies per plate | 13
O=[N+]([O-])c1ccc(N2CCN(CCC(O)c3ccc(F)cc3)CC2)c(C(F)(F)F)c1 (centres unmarked) | Salmonella typhimurium | SOS/umu test | TA1535/pSK1002 | 0.008 mg/mL, 4 h, with S9, lower range | – | survival | 119%
[Cl-].[Cl-].[Pt+2].[Ru+2].c1ccc(-c2nccnc2-c2ccccn2)nc1.c1cnc2c(c1)ccc1cccnc12.c1cnc2c(c1)ccc1cccnc12 | Danio rerio | – | embryos | 75 µM, 0 h | – | survival rate | 100%
O[C@H](CNCCN1CCN(C(c2ccccc2)c2ccccc2)CC1)c1cc(Cl)cc2c1-c1ccc(Cl)cc1C2 | Plasmodium falciparum | – | 3D7 | – | baseline: HepG2 CC50 over IC50 | selectivity index | 410
[Cl-].[Cl-].[Pt+2].[Ru+2].c1ccc(-c2nc3ccccc3nc2-c2ccccn2)nc1.c1cnc2c(c1)ccc1cccnc12.c1cnc2c(c1)ccc1cccnc12 | Danio rerio | – | embryos | 60 µM, 48 h | – | hatching rate | 13.3 ± 6.1%
CC(=O)N1CCC(C(=O)N2CCN3C(=O)c4cc(-c5ccccc5)ccc4NC(=O)C3C2)CC1 (centres unmarked) | Escherichia coli | – | WP2 uvrA | 5000 µg/plate, with rat liver S9 | baseline: vehicle | revertant fold increase | 1

For quick reference, copied from above:
SMILES | organism | assay | test system | conditions | how to read | quantity | value
O=[N+]([O-])c1ccc(N2CCN(CCC(O)c3ccc(F)cc3)CC2)c(C(F)(F)F)c1 (centres unmarked) | Salmonella typhimurium | SOS/umu test | TA1535/pSK1002 | 0.008 mg/mL, 4 h, with S9, lower range | – | survival | 119%
O=[N+]([O-])c1ccc(NC2CCNCC2)c(C(F)(F)F)c1 | Salmonella typhimurium | SOS/umu test | TA1535/pSK1002 | 0.125 mg/mL, 4 h, without S9, full range | – | survival | 85.6%
